Assay results of several laboratories.
Parts stem from different laboratories: compare values within a part only. Substitutions count along the parent as printed.

Series 1 — technique: aptamer microarray, sandwich; molecule type: DNA with 2'F-ANA; sample: in vitro; tested at: 200 nM; together with: Cy3 exosite-II aptamer, 400 nM; reading: higher = stronger binding; endpoint: mean fluorescence intensity; sequence: GGTTGGTGTGGTTGG
Target: Prothrombin, mature alpha-thrombin (F2, Homo sapiens, UniProt P00734)
Notes: whole 15-mer aptamer, many near background
2'F-ANA at 3 9 13: 983 a.u.
2'F-ANA at 1 2 5 6 11 12 13 14: 75.1 a.u.
2'F-ANA at 2 3 5 9 11 13 14 15: 47.5 a.u.
2'F-ANA at 2 6 10 11 13 14 15: 71.2 a.u.
2'F-ANA at 2 4 7 15: 416 a.u.
2'F-ANA at 1 3 4 5 6 7 8 10 11 12 13 14: 47.5 a.u.
2'F-ANA at 4 6 7 8 10 11 15: 76.1 a.u.
2'F-ANA at 1 3 4 5 6 10 11: 48.4 a.u.
2'F-ANA at 2 3 4 5 13 14: 53.3 a.u.
2'F-ANA at 1 2 4 6 8 11 12 13: 184 a.u.
2'F-ANA at 3 4 6 9 13 14 15: 357 a.u.
2'F-ANA at 6 7 9 10 12: 192 a.u.
2'F-ANA at 3 9 12: 1370 a.u.
2'F-ANA at 1 4 5 7 8: 63 a.u.
2'F-ANA at 1 2 4 5 7 8 14 15: 50 a.u.
2'F-ANA at 1 2 6 8 13 15: 127 a.u.
2'F-ANA at 2 3 5 6 7 9 10 11 15: 53.4 a.u.
2'F-ANA at 1 3 4 6 7 8 9 10 13 15: 69.1 a.u.
2'F-ANA at 1 2 4 8 9 11 15: 113 a.u.

Series 2 — technique: RNA Bind-n-Seq; molecule type: RNA; sample: in vitro; tested at: 20 nM; notes: 6-mer, flanks averaged, single round; together with: 150 mM LiCl; relative to: input library; reading: higher = stronger binding; endpoint: 6-mer enrichment (R)
Target: TAR DNA-binding protein 43, full length, His tag (TARDBP, Homo sapiens, UniProt Q13148, residues 1-414)
GACAGC: 0.876
GCUGUG: 1.2
GAAACA: 0.811
GGGCAG: 1.16
CGGCGG: 1.05
CUCUGA: 0.81
UUUCCU: 1.03
GUACAU: 0.884
AUUUGC: 1.04
CCCGUC: 0.924
UGUCGG: 1.15
AAUACA: 0.853

Series 3 — technique: protein binding microarray; molecule type: double-stranded DNA, one strand shown; sample: in vitro; tested at: not given; relative to: not given; reading: higher = stronger binding; endpoint: E-score
Target: Histone acetyltransferase KAT6A, both winged helices, GST fusion (KAT6A, Homo sapiens, UniProt Q92794, residues 1-181)
Notes: 8-mer, flanks averaged, mean of 2 arrays, mostly near background
Construct (chain): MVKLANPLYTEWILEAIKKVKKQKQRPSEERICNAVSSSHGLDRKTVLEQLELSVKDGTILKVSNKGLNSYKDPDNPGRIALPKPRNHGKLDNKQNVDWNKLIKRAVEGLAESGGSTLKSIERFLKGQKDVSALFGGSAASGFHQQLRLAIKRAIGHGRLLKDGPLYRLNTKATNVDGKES
ATGCAATA: -0.0997
AACAACCT: -0.204
CGTAGATC: 0.0378
CCCGTTGA: 0.183
ACGTCGTC: 0.139
CGTACTAG: 0.094
CTGTACTA: -0.1
GGTTAGAA: -0.207
GCCGCAAC: 0.274
CACGGAAG: 0.236
GGCATGTA: -0.0635
AACATAAC: 0.079
GTAAAATA: -0.0787
CACAGCTA: -0.222
AGACGGGA: 0.199
ACGAGACG: 0.0585
ATTAGTTC: -0.107
CAGTTTCC: 0.0116
ATTATAAG: -0.12
AGAGGCCC: -0.131
AAGGATCA: -0.177
CGGTCCGA: 0.235
TCGTAAGA: -0.02
CAGAACGC: 0.202

Series 4 — target: CCNB3, cyclin fold, Cln2 fusion (human); technique: yeast growth competition, sequencing; sample: yeast; notes: weak parent motif; relative to: not given; reading: higher = stronger binding; endpoint: normalised enrichment score
Starting sequence: SLBP docking peptide (human); ARYKRKLLINDFG; partner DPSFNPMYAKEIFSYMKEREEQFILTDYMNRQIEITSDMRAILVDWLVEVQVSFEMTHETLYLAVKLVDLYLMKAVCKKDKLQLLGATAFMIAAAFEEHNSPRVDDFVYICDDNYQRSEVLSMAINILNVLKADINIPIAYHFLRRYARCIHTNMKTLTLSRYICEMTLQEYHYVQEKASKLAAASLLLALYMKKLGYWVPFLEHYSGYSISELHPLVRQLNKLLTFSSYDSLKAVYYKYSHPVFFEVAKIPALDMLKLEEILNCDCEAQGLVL
ARYKRKMLINDFG [L7M]: 0.284
ARYKRKLLIHDFG [N10H]: 0.213
ARYKRKLLVNDFG [I9V]: 0.134
ARYKRKLSINDFG [L8S]: -0.084
ARYKRKVLINDFG [L7V]: 0.164
ARYKRKLLINDFP [G13P]: 0.491
ARYKAKLLINDFG [R5A]: 0.3
ARYFRKLLINDFG [K4F]: 0.47
ARYKRFLLINDFG [K6F]: -0.0613
ARYKRKKLINDFG [L7K]: -0.00376
ARYKRKLAINDFG [L8A]: 0.163
ARYKRKLLDNDFG [I9D]: -0.2
ARYLRKLLINDFG [K4L]: 0.329
ARYKRALLINDFG [K6A]: 0.375
ARYKYKLLINDFG [R5Y]: -0.238

Series 5 — technique: universal PBM; molecule type: double-stranded DNA, one strand shown; sample: in vitro; tested at: 600 nM; reading: higher = stronger binding; endpoint: E-score
Target: Sal-like protein 4, full length isoform A (SALL4, Homo sapiens, UniProt Q9UJQ4, residues 1-1053)
Chain of UniProt Q9UJQ4 (whole entry, looked up): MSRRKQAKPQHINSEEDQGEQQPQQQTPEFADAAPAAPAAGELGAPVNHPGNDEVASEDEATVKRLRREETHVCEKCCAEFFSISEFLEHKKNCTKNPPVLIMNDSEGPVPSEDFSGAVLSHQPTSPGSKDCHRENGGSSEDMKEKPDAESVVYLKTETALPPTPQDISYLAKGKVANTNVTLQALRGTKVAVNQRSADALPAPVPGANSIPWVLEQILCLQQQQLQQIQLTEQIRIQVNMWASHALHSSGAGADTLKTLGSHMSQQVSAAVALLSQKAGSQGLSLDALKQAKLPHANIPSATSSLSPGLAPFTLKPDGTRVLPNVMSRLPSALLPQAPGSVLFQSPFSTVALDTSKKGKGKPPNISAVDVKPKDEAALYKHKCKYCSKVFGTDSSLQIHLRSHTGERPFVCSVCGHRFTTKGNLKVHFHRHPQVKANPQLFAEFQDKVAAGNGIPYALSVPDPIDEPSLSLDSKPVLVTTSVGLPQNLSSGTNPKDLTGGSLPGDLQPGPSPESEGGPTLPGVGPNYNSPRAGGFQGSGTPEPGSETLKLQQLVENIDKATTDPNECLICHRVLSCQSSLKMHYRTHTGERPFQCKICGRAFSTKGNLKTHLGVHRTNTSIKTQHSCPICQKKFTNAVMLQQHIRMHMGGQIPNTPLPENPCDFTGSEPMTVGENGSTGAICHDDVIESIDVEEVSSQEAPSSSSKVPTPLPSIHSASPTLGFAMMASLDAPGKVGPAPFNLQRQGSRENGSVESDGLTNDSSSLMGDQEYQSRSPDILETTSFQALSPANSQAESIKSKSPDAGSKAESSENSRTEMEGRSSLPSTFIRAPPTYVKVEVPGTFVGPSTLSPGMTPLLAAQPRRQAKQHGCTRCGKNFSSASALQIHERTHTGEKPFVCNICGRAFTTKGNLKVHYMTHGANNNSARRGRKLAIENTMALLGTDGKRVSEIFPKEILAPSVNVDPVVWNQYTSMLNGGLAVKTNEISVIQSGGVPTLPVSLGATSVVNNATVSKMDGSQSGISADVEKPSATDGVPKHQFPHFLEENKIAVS
Notes: 8-mer, flanks averaged, mean of replicates
CGTGAATC: -0.0529
ATCTATGC: 0.103
ACAAACTC: 0.08
AAAACTGT: 0.189
AAGCCGGA: -0.19
CGCTCTGC: -0.222
AGGCGTTC: -0.273
CTTATCTC: 0.214
ACAAAAGT: 0.211
CGATAATA: 0.334
AGGTAATA: 0.315
AGCGGGTA: -0.154
CTTTTAGC: 0.0367
AACGACAT: 0.12
CTTAAGGC: -0.153
GCCTATTA: 0.203
ATTTGAAC: 0.202
AAGACACA: 0.0465
AACGTTTC: 0.144
CAGTTAGA: -0.0489
TACTATGA: 0.271
AGGTATAG: 0.123
AACAATTG: 0.202
GCAATGCA: -0.0789
AGGTTCCA: -0.102

Series 6 — technique: RNAcompete; molecule type: RNA; sample: in vitro; tested at: 20 nM; notes: 7-mer, probes averaged, single round; relative to: mean of 7-mers; reading: higher = stronger binding; endpoint: 7-mer Z-score
Target: PABPC1L2, full length, GST fusion (mouse, UniProt A0ABA7IW68)
Construct (chain): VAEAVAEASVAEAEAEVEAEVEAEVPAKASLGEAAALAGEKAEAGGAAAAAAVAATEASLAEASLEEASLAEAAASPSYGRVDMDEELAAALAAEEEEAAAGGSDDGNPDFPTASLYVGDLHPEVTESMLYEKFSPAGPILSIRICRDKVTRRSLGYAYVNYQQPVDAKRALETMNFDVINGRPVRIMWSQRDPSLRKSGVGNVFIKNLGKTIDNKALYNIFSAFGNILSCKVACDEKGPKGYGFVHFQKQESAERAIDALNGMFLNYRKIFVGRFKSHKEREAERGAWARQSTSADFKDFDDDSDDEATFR
UCGCACC: -0.429
AGCAAGG: 0.234
GGAUAUC: -0.135
AGCCCCC: -0.44
ACUCGUG: -0.231
UACUAGG: -0.0554
UAACGGG: 0.0768
CGCUUCA: -0.324
AUACACA: 0.0932
AAGGGCG: 0.767
AUAAUAA: 0.441
UAGCUAA: -0.0881
UUAUAGG: -0.0591
AGGGAGC: 0.187
CUGGGUG: 0.0768
ACAAUAA: 1.16
ACUGUAG: 0.00798
UUCCUUC: -0.271
AGAUUAA: 0.138

Other studies, line by line
PhoQ, residues 284 288 289 292 302 303 TLSLKA  fold induction (PhoP, residues 12 14 15 18 19 LWHSL (Escherichia coli, UniProt P23836); Sort-seq, item: YFP reporter; E. coli; PhoQ-PhoP variant library, together with: 10 µM Mg2+; relative to: high Mg2+ state, higher = stronger signaling): 0.598

Excerpt of the above (series 2):
GACAGC: 0.876
GCUGUG: 1.2
GAAACA: 0.811
GGGCAG: 1.16
CGGCGG: 1.05
CUCUGA: 0.81
UUUCCU: 1.03
GUACAU: 0.884
AUUUGC: 1.04
CCCGUC: 0.924
UGUCGG: 1.15
AAUACA: 0.853
